Measured values from different studies.
A part holds a random share of what one study measured. Changes are numbered by the printed parent chain.

Study 1
Target: Ras GTPase-activating protein-binding protein 1, RRM domain (G3BP1, Homo sapiens, UniProt Q13283)
Sequence of UniProt Q13283 (whole entry, looked up): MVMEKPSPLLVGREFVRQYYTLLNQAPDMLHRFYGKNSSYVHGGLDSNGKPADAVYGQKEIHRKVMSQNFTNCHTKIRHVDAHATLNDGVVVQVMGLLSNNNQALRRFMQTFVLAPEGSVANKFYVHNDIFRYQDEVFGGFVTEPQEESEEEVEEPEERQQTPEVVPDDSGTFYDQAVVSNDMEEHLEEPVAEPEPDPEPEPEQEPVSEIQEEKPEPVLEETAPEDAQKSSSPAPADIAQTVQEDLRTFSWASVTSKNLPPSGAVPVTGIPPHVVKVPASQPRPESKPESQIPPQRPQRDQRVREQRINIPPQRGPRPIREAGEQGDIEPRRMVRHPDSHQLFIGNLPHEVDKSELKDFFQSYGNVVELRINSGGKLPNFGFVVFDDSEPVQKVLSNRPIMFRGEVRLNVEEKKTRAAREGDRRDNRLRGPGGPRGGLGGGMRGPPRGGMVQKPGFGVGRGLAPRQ
Method: RNA Bind-n-Seq
Form: RNA
Medium: in vitro
Tested at: 1 µM
Setting: whole 134-nt RNA, ends assumed
Added: 150 mM KCl
Baseline: input library
Direction: higher = stronger binding
`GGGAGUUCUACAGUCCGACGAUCUGGCCCUGGUGGCAUGCGGGGAGGAAGAGGUGGCCUCAUGGAUCGUGGUGGACCCGGUGGAAUGUUCAGAGGUGGCCGUGGUGGAGACAGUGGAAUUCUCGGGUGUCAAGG` gave a log2 enrichment of 0.754.
The log2 enrichment of `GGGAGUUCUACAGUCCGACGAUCUGGGAGGUGGAUUUUGUUUAUUUUUUUAGCUCAUUUCCAGGGGUGGGAAUUUUUUUUUAAUAUGUGUCAUGAAUAAAGUUGUUUUUGAAAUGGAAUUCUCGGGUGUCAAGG` is reported as 1.34.
`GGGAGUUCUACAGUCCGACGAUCGCCACCAUGCCCACCUAGUUUUUGCAUUUUUAGUGGAGGUGUGGUUUCACUGUGUUGGCCAGGCUGGUCUCUUAACUCCUGACCUCAGGUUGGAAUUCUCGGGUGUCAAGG` has a log2 enrichment of -0.0507.
With `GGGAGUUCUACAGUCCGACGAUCUUGUCCCGGAUGGGCAGCCUGCGGGCUCCCGUGGACGAGGACCGCCUGUCCCCGCUGGUGGCGGCCGACUCGCUCCUGGAGCAUGUGCGGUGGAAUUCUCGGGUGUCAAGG` the log2 enrichment was -0.395.
`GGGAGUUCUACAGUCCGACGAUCUCAAGUCCUGUGCUACACAUCGUAUGUACCGAAUCGGGGCCCGGCCCGGGCCCGGAAAGUAUUAUGUUACGCCGUUCGGAUCUGCACUUCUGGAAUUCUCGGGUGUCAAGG` has a log2 enrichment of -0.597.
With `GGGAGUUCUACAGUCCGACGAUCCAAGUCCUGUGCUACACAUCGUAUGUACCGAAUCGGGGCCGGGGCCGGGGCCGGGAAAGUAUUAUGUUACGCCGUUCGGAUCUGCACUUCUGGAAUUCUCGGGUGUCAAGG` the log2 enrichment was -1.68.

Study 2
Target: CCNA1, cyclin fold, Cln2 fusion (human)
Method: yeast growth competition, sequencing
Medium: yeast
Setting: weak parent motif
Baseline: not given
Direction: higher = stronger binding
Starting sequence: CDC25A docking peptide (human); PPHRRRLLFACSP; partner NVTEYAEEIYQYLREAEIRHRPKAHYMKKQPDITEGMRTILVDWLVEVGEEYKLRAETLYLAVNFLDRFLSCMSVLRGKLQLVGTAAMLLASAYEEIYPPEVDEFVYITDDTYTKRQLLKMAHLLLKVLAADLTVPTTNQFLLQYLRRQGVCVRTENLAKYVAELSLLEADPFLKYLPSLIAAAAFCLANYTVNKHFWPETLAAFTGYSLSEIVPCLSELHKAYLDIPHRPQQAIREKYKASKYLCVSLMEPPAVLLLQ
Under “normalised enrichment score”, `NPHRRRLLFACSP [P1N]` is recorded as 0.4.
For `PPHRRRLLTACSP [F9T]`, “normalised enrichment score” read 0.478.
For `PPHRRRLLFDCSP [A10D]`, “normalised enrichment score” read 0.302.
Under “normalised enrichment score”, `PPHGRRLLFACSP [R4G]` is recorded as 0.347.
For `YPHRRRLLFACSP [P1Y]`, “normalised enrichment score” read 0.202.
`PPHRRRLNFACSP [L8N]`: “normalised enrichment score” 0.352.
Under “normalised enrichment score”, `PPHRRRLDFACSP [L8D]` is recorded as 0.354.

Study 3
Target: RNA binding protein fox-1 homolog 2, RRM domain, GST-SBP tag (RBFOX2, Homo sapiens, UniProt O43251-10, residues 100-194)
Method: RNA Bind-n-Seq
Form: RNA
Medium: in vitro
Tested at: 365 nM
Setting: natural RNA segment, single round, ends assumed
Baseline: no-protein control
Direction: higher = stronger binding
Target sequence (chain): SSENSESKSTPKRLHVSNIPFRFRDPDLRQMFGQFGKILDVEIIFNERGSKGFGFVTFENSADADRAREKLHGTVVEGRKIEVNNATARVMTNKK
For `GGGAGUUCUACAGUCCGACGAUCGAGAGCAAAAAAGACACCGAUGGGGUUUUCAGCUCCUAACUGGACCCUCUUGCCCAGCCGGCUGCAAGUUUUGUAAGCGCGGACAGACACUGCUGAACCUUUCCUCUGGGUGGAAUUCUCGGGUGCCAA`, “RBNS enrichment (R)” read 0.288.
Under “RBNS enrichment (R)”, `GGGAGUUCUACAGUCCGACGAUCCAGGGUAUGCUUUCUAGAAAAUAUGCUGUUCUGUCCCAGAAUGACUGUGCAUAGGGUAUCCGUUUCAGAGCCUGGUGUUGUGCUAUUUAGAUGUUUGUCUUGCACAACAUUGGAAUUCUCGGGUGCCAA` is recorded as 0.503.
`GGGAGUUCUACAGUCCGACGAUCGUAAUCUGUUCCCAGUGUGGUAUCUCAAAAUUGUGCUGAGAUUAUCUUAGUAUAUGUAUUGGAUUCCUGUACUUCCAAAGUCCUGGAAUAUAGUUUUUUUAGUAUAAUUCUGGAAUUCUCGGGUGCCAA` — result for “RBNS enrichment (R)”: 0.318.
For `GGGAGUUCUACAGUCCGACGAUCUAUAUCCCUGAUUGGUUAUUUUUCCUUUCCUUCUGAGGUUCUCAUGUCAUUUUCUUCAUCGGAUGUGACUAAAAUUUUUCUGGUGUCUUCUGCCCUCUCUUUAAUUUUGCUGGAAUUCUCGGGUGCCAA`, “RBNS enrichment (R)” read 0.622.
`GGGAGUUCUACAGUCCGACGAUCUUUCCCUCUGUAUACAAGGAUCAGAUUCUUGCUGUGACCCAAGAACUCCUGAAAUCAUAUAGAAAGGCUGGGGUGGGCCCUGUCAUUCGUGGUUGAUUUCAAUACACUCAUGGAAUUCUCGGGUGCCAA`: “RBNS enrichment (R)” 0.439.
Under “RBNS enrichment (R)”, `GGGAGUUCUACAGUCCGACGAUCAAUUUUUUGAAUAUGCCUUAAUUUAGAAACUGAAAAAUAUCUGGUUAUAUCAUUCUGGGUGUGUUCUUACUGACACCAGGGGUCCGCUGCCCCAUGUGUCCUGGUGAGAAUGGAAUUCUCGGGUGCCAA` is recorded as 0.823.

Mixed results
`PhoQ, residues 284 288 289 292 302 303 WSHMKI` has a fold induction of 0.842 (PhoP, residues 12 14 15 18 19 HLGGL (Escherichia coli, UniProt P23836); Sort-seq, refers to: YFP reporter; E. coli; PhoQ-PhoP variant library, added: 10 µM Mg2+; baseline: high Mg2+ state, higher = stronger signaling).

For quick reference, copied from above (study 3):
`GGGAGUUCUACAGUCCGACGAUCUUUCCCUCUGUAUACAAGGAUCAGAUUCUUGCUGUGACCCAAGAACUCCUGAAAUCAUAUAGAAAGGCUGGGGUGGGCCCUGUCAUUCGUGGUUGAUUUCAAUACACUCAUGGAAUUCUCGGGUGCCAA`: “RBNS enrichment (R)” 0.439.
Under “RBNS enrichment (R)”, `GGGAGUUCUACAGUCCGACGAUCAAUUUUUUGAAUAUGCCUUAAUUUAGAAACUGAAAAAUAUCUGGUUAUAUCAUUCUGGGUGUGUUCUUACUGACACCAGGGGUCCGCUGCCCCAUGUGUCCUGGUGAGAAUGGAAUUCUCGGGUGCCAA` is recorded as 0.823.
For `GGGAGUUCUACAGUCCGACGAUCUAUAUCCCUGAUUGGUUAUUUUUCCUUUCCUUCUGAGGUUCUCAUGUCAUUUUCUUCAUCGGAUGUGACUAAAAUUUUUCUGGUGUCUUCUGCCCUCUCUUUAAUUUUGCUGGAAUUCUCGGGUGCCAA`, “RBNS enrichment (R)” read 0.622.
